Measurements collected from several papers.
Each line is one published result; not all experiments were run side by side. ± gives the spread as reported.

For `Oc1ccccc1-c1nn(-c2ccccn2)[n+](-c2ccccc2)n1.[Br-]`, the dead cells was 2.4% (A2780; LIVE/DEAD flow cytometry; 40 µM, 48 h, added: ferric ammonium citrate 50 µM).
Under phospho-H2AX level, `CCCCCCCCN(CCC(=O)Nc1ccccc1)C(=O)C1CCCN1` (stereo not drawn) is recorded as “decreased” (progeroid mouse fibroblasts; immunoblot, item: phospho-histone H2AX; 2 µM, 14 d).
`CCCC[C@H](NC(=O)[C@H](Cc1ccccc1)NC(=O)[C@H](Cc1c[nH]cn1)NC(=O)CCNC(=O)[C@@H](NC(=O)[C@H](C)NC(=O)[C@H](Cc1c[nH]c2ccccc12)NC(=O)[C@H](CCC(N)=O)NC(=O)[C@H](N)Cc1ccc(O)cc1)C(C)C)C(N)=O`: “phosphorylation fold increase” 1.9 fold (NCI-H1299; Western blot, item: EGFR tyrosine phosphorylation; 0.1 µM, 2 min; baseline: untreated).
`Cn1c2cc([S+](C)[O-])sc2c2cnn(Cc3cccc(N)c3)c(=O)c21` (stereo not drawn): “intracellular ribose phosphate” “decreased” (H1299; LC-MS/MS; 25 µM, 36 h).
The GI50 of `C1=[N+]2CCCC[N+]3=Cc4ccc5[n]4[Au-]23[n]2c1ccc2-c1nc2ccccc2nc1-5.F[P-](F)(F)(F)(F)F` is reported as 6 µM (NCI60 non-small cell lung lines).
With `COCC/N=C(\S)N/N=C(\C)c1ccccc1O` the EC50 was 7 µM (LDR; silenced GFP reporter derepression, microscopy; overnight).
`O=Cc1c(O)ccc2ccccc12`: “log2 fold change” -2.93 (HUVEC; RNA sequencing, item: RARB; 75 µM, 24 h; baseline: DMSO).
`CCOC(=O)C1NC(c2ccc[n+](C)c2)C23c4c5c6c7c8c9c(c%10c%11c2c2c4c4c%12c5c5c6c6c8c8c%13c9c9c%10c%10c%11c%11c2c2c4c4c%12c%12c5c5c6c8c6c8c%13c9c9c%10c%10c%11c2c2c4c4c%12c5c6c5c8c9c%10c2c45)C713` (stereo not drawn): “increase in dead cells” 7 to 15% (BCBL1 and BC-3; LDH release; 50 µM, 24 h).
`COc1cc(N2CCN(C(=O)C3CCCN3)CC2)ccc1Nc1ncc(Cl)c(Nc2ccccc2P(C)(C)=O)n1` (stereo not drawn): “time to growth inhibition” 3 h (Ba/F3 EML4-ALK; cell proliferation, CCK-8 time course; 1 µM).
With `O=C(N=P12CN3CN(CN(C3)C1)C2)c1cccc[c]1[Pd].O=C(N=P12CN3CN(CN(C3)C1)C2)c1cccc[c]1[Pd]([Br])[Br]` the selectivity ratio was 26 (human PBMC and Jurkat; cytotoxicity, MTT; baseline: PBMC over Jurkat).
For `COc1cc(CNC(=O)C[C@H](C)CCC=C(C)C)ccc1OCc1cn(-c2ccc([N+](=O)[O-])cc2)nn1`, the growth percent was 102% (OVCAR-5 ovarian cancer cells; SRB; 10 µM, 48 h).
For `C#CCN(CC(=O)O[C@H]1[C@H](C)O[C@@H](O[C@H]2[C@H](N(C)C)[C@@H](O)[C@H](O[C@H]3[C@@H](CC=O)C[C@@H](C)[C@@H](O[C@H]4CC[C@H](N(C)C)[C@@H](C)O4)/C=C/C=C/C[C@@H](C)OC(=O)C[C@@H](O)[C@@H]3OC)O[C@@H]2C)C[C@@]1(C)O)C(=O)c1ccc(C(F)(F)F)cc1`, p53 level read “increased” (HGC-27; Western blot; 0.10, 0.45, 0.90 µM, 24 h).
`Clc1cccc(Nc2nc(NCc3ccccc3)c3ccccc3n2)c1` gave a GI50 of 4.1 µM (SW-403; cell growth or viability; 72 h).
For `CCN(CC)CC(=O)Nc1cccc(-n2cc(-c3ccc4ccc(-c5cn(-c6cccc(NC(=O)CN(CC)CC)c6)nn5)cc4c3)nn2)c1`, “HRE reporter activity” read 23.4% (RCC4; luciferase reporter; 5 x IC50, 4 h, hypoxia; baseline: hypoxic untreated).
`Cc1ccc(C(C)C)c(OCc2ccc(C(=O)N/N=C/c3cccc(O)c3O)cc2)c1` — result for H3K4me3 level: “increased” (HCC4017; ChIP, item: ANGPTL4 promoter H3K4me3; 1.3 µM, 24 h).
The phototherapeutic index of `CCCCCCCCC1(CCCCCCCC)c2cc(C#Cc3cc4[n+]5c(c3)-c3cccc[n+]3[Ir-3]536([n+]5ccccc5-4)[n+]4ccccc4-c4cc(-c5ccccc5)cc([n+]43)-c3cccc[n+]36)ccc2-c2ccc(C#Cc3cc4[n+]5c(c3)-c3cccc[n+]3[Ir-3]536([n+]5ccccc5-4)[n+]4ccccc4-c4cc(-c5ccccc5)cc([n+]43)-c3cccc[n+]36)cc21.F[P-](F)(F)(F)(F)F.F[P-](F)(F)(F)(F)F.F[P-](F)(F)(F)(F)F.F[P-](F)(F)(F)(F)F.F[P-](F)(F)(F)(F)F.F[P-](F)(F)(F)(F)F` is reported as 20 (SK-MEL-28; visible light 100 J/cm2; baseline: dark EC50 over visible-light EC50).
For `COc1cc(CNC(=O)C[C@H](C)CCC=C(C)C)ccc1OCc1cn(-c2cccc(C(F)(F)F)c2)nn1`, the growth percent was 97.2% (SNB-19 CNS cancer cells; SRB; 10 µM, 48 h).
`CC1=CCC23OC2(C)CCC2C(CN(C)C)C(=O)OC2C13.Cl` (stereo not drawn) gave a proliferation of 4.19 ± 1.43% (C6 rat glioma cells; 2.5 mg/mL, clonogenic; baseline: control).
`COc1ccc([C@@H]2CC(=O)c3c(O)cc(O[C@@H]4O[C@H](CO[C@@H]5O[C@@H](C)[C@H](O)[C@@H](O)[C@H]5O)[C@@H](O[C@H]5O[C@H](CO)[C@@H](O)[C@H](O)[C@H]5O)[C@H](O)[C@H]4O)cc3O2)cc1O` has a cell count of 10000 ± 668 (MRC5; trypan blue exclusion; 100 µg/mL, 48 h).
The apoptotic cells of `Cc1nn(-c2ccc(S(=O)(=O)N[C@@H](CO)CC(C)C)cc2)c2nn3nnnc3nc12` is reported as 27.5 ± 4.24% (HT-29; AO/EB staining; 1 µM, 24 h).
`Cc1c2ccnc(C(=O)N[C@H](C)CN(C)C)c2cc2c3cc(OCCCN4CCN(C)CC4)ccc3n(C)c12`: “C9orf72 intron level” “no effect” (C9orf72 ALS iPSCs; qRT-PCR; 50 nM, added: XRN1 or XRN2 siRNA; baseline: control siRNA).
For `C[N+]1(CC(=O)OC2CCCCCCCCCCC2)CCCCC1`, the ED70 was 9.4 µM (LNCaP; cell viability, CellTiter Blue; 96 h).
For `COc1ccc(CC2COC(=O)C2Cc2ccc3c(c2)OCO3)cc1OC` (mixture of isomers), live cells read “decreased” (A2780; item: multi-caspase; 8.75 µM, 72 h; baseline: untreated).
For `CCC(CC)CNC(=N)NC(=N)NCCCCCCNC(=N)NC(=N)NCC(CC)CC`, “cells unable to hyperpolarize” read 12% (NCI-H1299; TMRM flow cytometry; 1 µM, 48 h, added: oligomycin 1 µM).
`COc1cc(CNC(=O)C[C@H](C)CCC=C(C)C)ccc1OCc1cn(-c2ccccc2)nn1` has a growth percent of 83.3% (BT-549 breast cancer cells; SRB; 10 µM, 48 h).
For `O=C(O)c1ccc(/C=C2\SC(=S)N(Cc3cccc(C(F)(F)F)c3)C2=O)cc1`, ASC oligomerization read “decreased” (mouse BMDM; concentration not given, added: nigericin).
`COc1cc(CNC(=O)C[C@H](C)CCC=C(C)C)ccc1OCc1cn(-c2ccc(Cl)cc2Cl)nn1` has a growth percent of 83.7% (BT-549 breast cancer cells; SRB; 10 µM, 48 h).
For `CCCCN1C(=O)c2cccc3c(NCCCCCCN4CCOCC4)ccc(c23)C1=O`, the diffusion coefficient was 0.0027 (BHK-21; FRAP).
`CCCCCCCCCCCCCCCC(=O)OCC(CSC[C@H](N)C(=O)N[C@@H](CO)C(=O)N[C@@H](CCCCN)C(=O)N[C@@H](CCCCN)C(=O)N[C@@H](CCCCN)C(=O)N[C@@H](CCCCN)C(=O)NCCCCCC(=O)N[C@@H](CCCCN)C(=O)N[C@@H](CC(C)C)C(=O)N[C@H](C(=O)N[C@@H](Cc1ccccc1)C(=O)N[C@@H](Cc1ccccc1)C(=O)N[C@@H](Cc1ccc2ccccc2c1)C(=O)O)C(C)C)OC(=O)CCCCCCCCCCCCCCC` (stereo partly drawn): protein level “increased” (BV-2; western blot, item: MARCO; 1.0 µM, 12 h).
`COc1cc(CNC(=O)C[C@H](C)CCC=C(C)C)ccc1OCc1cn(-c2ccc(Br)cc2)nn1` gave a growth percent of 93.6% (BT-549 breast cancer cells; SRB; 10 µM, 48 h).
`CC(=O)OC[C@H]1O[C@@H](Sc2sc(C(=O)c3ccc(C)cc3)c(N)c2-c2nc3ccccc3s2)[C@H](OC(C)=O)[C@@H](OC(C)=O)[C@H]1OC(C)=O` gave a growth of 88.2% (SNB-19; SRB; 10 µM, 48 h; baseline: untreated).
`O=C(N/N=C/c1ccccn1)c1cc(-c2ccc(Cl)cc2)nc2ccccc12` has an Emax of 61% (LDR; silenced GFP reporter derepression, microscopy; overnight; baseline: sodium butyrate).
`COc1cc(/C=C/C(=O)NCCCCCCNC2=C3C[C@@H](C)C[C@H](OC)[C@H](O)[C@@H](C)/C=C(\C)[C@H](OC(N)=O)[C@@H](OC)/C=C\C=C(/C)C(=O)NC(=CC2=O)C3=O)ccc1O` — result for “client protein levels”: “decreased” (MDA-MB-231 cells; Hsp90 inhibitor, Western blot, item: Her2, Akt, CDK4; concentration not given).
The selectivity index of `CC(=O)Oc1ccccc1C(=O)[O][Pt]([NH2])([NH2])([Cl])([Cl])[O]C(=O)CCCc1ccccc1` is reported as 1.2 (HEK293 and PSN1; cytotoxicity, MTT; baseline: IC50 HEK293 over IC50 PSN1).
`C[C@@H](O)[C@H](NC(=O)[C@@H]1CSSC[C@H](NC(=O)[C@@H](Cc2ccccc2)NC(=O)CCOCCOCCOCCOCCOCCOCCOCCOCCNC(=S)Nc2ccc(C[C@H]3CN(CC(=O)O)CCN(CC(=O)O)CCN3CC(=O)O)cc2)C(=O)N[C@@H](Cc2ccc(O)cc2)C(=O)N[C@H](Cc2c[nH]c3ccccc23)C(=O)N[C@@H](CCCCN)C(=O)N[C@@H]([C@@H](C)O)C(=O)N1)C(=O)O` [copper-64 labelled] gave an internalization of 3460 ± 130 fmol/mg (HCT116 expressing SSTR2; 4 h, 64Cu-labelled).
Under “cells with severe segregation errors”, `CCc1cccc(CC)c1NC(=O)c1nn(C)c2c1CCc1cnc(Nc3ccc(N4CCN(C)CC4)cc3OC)nc1-2` is recorded as 100% (HeLa H2B-YFP parental; live cell imaging; 100 nM).
`COc1cc(CNC(=O)C[C@H](C)CCC=C(C)C)ccc1OCc1cn(-c2ccccc2[N+](=O)[O-])nn1` has a growth percent of 65.9% (M14 melanoma cells; SRB; 10 µM, 48 h).
The inhibition of `Cc1noc(NS(=O)(=O)c2ccc(NC(=O)c3ccnc(-c4cccc(Br)c4)c3)cc2)c1C` is reported as 49 ± 4.69% (mouse spleen cells; cell proliferation, MTT; 100 µM, 72 h, added: concanavalin A 5 µg/mL).
`CCN(CC)C(=O)c1ccc(-c2c3ccc(=[N+](C)C)cc-3sc3cc4c(cc23)C(C)(C)CCN4C)s1` has an uptake increase of over 7 fold (Colo-26; flow cytometry; 0.5 µM, 1 h, added: verapamil 100 µM; baseline: without verapamil).
For `COc1cc(C2c3cc4c(cc3C(C(C)C)C3COC(=O)C23)OCO4)cc(OC)c1OC` (stereo not drawn), the selectivity index was under 0.01 (uninfected mouse splenocytes; baseline: splenocyte CC50 over amastigote EC50).
The growth percent of `COc1cc(CNC(=O)C[C@H](C)CCC=C(C)C)ccc1OCc1cn(-c2ccc(Cl)c(Cl)c2)nn1` is reported as 86.4% (OVCAR-5 ovarian cancer cells; SRB; 10 µM, 48 h).
`CC(C)(C)n1cc(CN(Cc2cn(CC(=O)O)nn2)Cc2cn(C(C)(C)C)nn2)nn1` has a yield of 0.8% (OVCAR-5 HPG-labelled; CuAAC reaction on cells, LC-ESI-MS/MS; cytosolic proteins; added: BSO 20 µM for 24 h pretreatment).

Repeated from above:
`CCCC[C@H](NC(=O)[C@H](Cc1ccccc1)NC(=O)[C@H](Cc1c[nH]cn1)NC(=O)CCNC(=O)[C@@H](NC(=O)[C@H](C)NC(=O)[C@H](Cc1c[nH]c2ccccc12)NC(=O)[C@H](CCC(N)=O)NC(=O)[C@H](N)Cc1ccc(O)cc1)C(C)C)C(N)=O`: “phosphorylation fold increase” 1.9 fold (NCI-H1299; Western blot, item: EGFR tyrosine phosphorylation; 0.1 µM, 2 min; baseline: untreated).
`CC(C)(C)n1cc(CN(Cc2cn(CC(=O)O)nn2)Cc2cn(C(C)(C)C)nn2)nn1` has a yield of 0.8% (OVCAR-5 HPG-labelled; CuAAC reaction on cells, LC-ESI-MS/MS; cytosolic proteins; added: BSO 20 µM for 24 h pretreatment).
`Cn1c2cc([S+](C)[O-])sc2c2cnn(Cc3cccc(N)c3)c(=O)c21` (stereo not drawn): “intracellular ribose phosphate” “decreased” (H1299; LC-MS/MS; 25 µM, 36 h).
The selectivity index of `CC(=O)Oc1ccccc1C(=O)[O][Pt]([NH2])([NH2])([Cl])([Cl])[O]C(=O)CCCc1ccccc1` is reported as 1.2 (HEK293 and PSN1; cytotoxicity, MTT; baseline: IC50 HEK293 over IC50 PSN1).
`CC1=CCC23OC2(C)CCC2C(CN(C)C)C(=O)OC2C13.Cl` (stereo not drawn) gave a proliferation of 4.19 ± 1.43% (C6 rat glioma cells; 2.5 mg/mL, clonogenic; baseline: control).
Under “cells with severe segregation errors”, `CCc1cccc(CC)c1NC(=O)c1nn(C)c2c1CCc1cnc(Nc3ccc(N4CCN(C)CC4)cc3OC)nc1-2` is recorded as 100% (HeLa H2B-YFP parental; live cell imaging; 100 nM).
`COc1cc(CNC(=O)C[C@H](C)CCC=C(C)C)ccc1OCc1cn(-c2ccc(Br)cc2)nn1` gave a growth percent of 93.6% (BT-549 breast cancer cells; SRB; 10 µM, 48 h).
